Published values collected from several papers.
Numbered parts are unrelated; each lists some results of a single study.

Block 1
Target: Histone acetyltransferase KAT6A, winged helix 1, GST fusion (KAT6A, Homo sapiens, UniProt Q92794, residues 1-85)
Technique: protein binding microarray
Molecule type: double-stranded DNA, one strand shown
Matrix: in vitro
Tested at: not given
Notes: 8-mer, flanks averaged, mean of 2 arrays, mostly near background
Reference: not given
Reading: higher = stronger binding
Target sequence (chain): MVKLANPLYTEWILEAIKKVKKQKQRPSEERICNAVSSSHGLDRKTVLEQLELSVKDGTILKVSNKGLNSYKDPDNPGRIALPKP
Sequence	E-score
ACTCGACG	0.0192
ACGCGAGG	0.11
ATAAGAGG	-0.0373
GTAGTGCA	-0.0181
CCAATCCA	-0.229
CGATTTAG	0.0422

Block 2
Target: Sal-like protein 4, full length isoform B (SALL4, Homo sapiens, UniProt Q9UJQ4-2, residues 1-616)
Technique: universal PBM
Molecule type: double-stranded DNA, one strand shown
Matrix: in vitro
Tested at: not given
Notes: 8-mer, flanks averaged, mean of replicates
Reading: higher = stronger binding
Sequence	E-score
TGTTTAAA	0.171
CAGAACAA	0.174
AGGAACAT	0.176
CCATTGGA	-0.0873
CAGATGCC	-0.172

Block 3
Target: Prothrombin, mature alpha-thrombin (F2, Homo sapiens, UniProt P00734)
Technique: aptamer microarray, sandwich
Molecule type: DNA with 2'F-ANA
Matrix: in vitro
Tested at: 200 nM
Notes: whole 15-mer aptamer, many near background
Together with: Cy3 exosite-II aptamer, 400 nM
Reading: higher = stronger binding
Sequence: GGTTGGTGTGGTTGG
Modification	mean fluorescence intensity
2'F-ANA at 6 10	185 a.u.
2'F-ANA at 2 6 9 11 13	250 a.u.
2'F-ANA at 2 3 4 6 7 8 11 12	816 a.u.
2'F-ANA at 1 3 4 6 7 9 10 11 13 14 15	50.9 a.u.
2'F-ANA at 2 3 5 8 9 13 14 15	55.7 a.u.

Other studies, line by line
Molecule	target	assay	system	conditions	how to read	measurement	result
PhoQ, residues 284 288 289 292 302 303 TAVSDG	PhoP, residues 12 14 15 18 19 QQAYL (Escherichia coli, UniProt P23836)	Sort-seq, item: YFP reporter	E. coli	PhoQ-PhoP variant library, together with: 10 µM Mg2+	reference: high Mg2+ state, higher = stronger signaling	fold induction	10.1

Excerpt of the above (block 1):
Sequence	E-score
ACGCGAGG	0.11
ATAAGAGG	-0.0373
